Results gathered from unrelated publications.
Parts stem from different laboratories: compare values within a part only. Substitutions count along the parent as printed.

Study 1
Target: Histone acetyltransferase KAT6A, winged helix 2, GST fusion (KAT6A, Homo sapiens, UniProt Q92794, residues 85-181)
Technique: protein binding microarray
Molecule type: double-stranded DNA, one strand shown
Matrix: in vitro
Concentration: not given
Setting: 8-mer, flanks averaged, mean of 2 arrays, mostly near background
Baseline: not given
Reading: higher = stronger binding
Residues (chain): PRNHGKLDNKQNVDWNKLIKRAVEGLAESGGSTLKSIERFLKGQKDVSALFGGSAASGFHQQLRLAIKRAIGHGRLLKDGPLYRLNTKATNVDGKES
Oligonucleotide	E-score
ATGCAGTC	-0.0836
AATGCGGT	-0.000985
AGCATATC	0.16
GGATGGCC	0.116
GTGCCAAC	0.0591
CCTGGTGA	0.103
CAAACGGG	0.0221
AAATTACT	-0.0155
CGACAGAG	-0.111
ATATGTGA	-0.126
AATGCGAG	0.103
ACCTCCGG	0.173
AATTGGGC	-0.0196
GGATAAAA	0.111
GCAATTAA	0.0873
ACCTCGTC	-0.046
GCTCCGAC	-0.0152
CTGTAATC	0.0289
GCCTCTCA	-0.0428
AGGATACG	-0.102

Study 2
Target: Interferon regulatory factor 3, full length, phosphomimetic (IRF3, Homo sapiens, UniProt Q14653, residues 1-427, S386D/S396D/S398D/S402D/T404D/S405D)
Technique: protein-binding microarray
Molecule type: double-stranded DNA, one strand shown
Matrix: in vitro
Concentration: 2540 nM top
Setting: 60-bp whole probe
Added: salmon DNA 0.4 mg/ml
Baseline: random background probes
Reading: higher = stronger binding
Constant ends, left off below: GCCTAGCAC … GTCTTGATTCGCTTGACGCTGCTG
Construct (chain): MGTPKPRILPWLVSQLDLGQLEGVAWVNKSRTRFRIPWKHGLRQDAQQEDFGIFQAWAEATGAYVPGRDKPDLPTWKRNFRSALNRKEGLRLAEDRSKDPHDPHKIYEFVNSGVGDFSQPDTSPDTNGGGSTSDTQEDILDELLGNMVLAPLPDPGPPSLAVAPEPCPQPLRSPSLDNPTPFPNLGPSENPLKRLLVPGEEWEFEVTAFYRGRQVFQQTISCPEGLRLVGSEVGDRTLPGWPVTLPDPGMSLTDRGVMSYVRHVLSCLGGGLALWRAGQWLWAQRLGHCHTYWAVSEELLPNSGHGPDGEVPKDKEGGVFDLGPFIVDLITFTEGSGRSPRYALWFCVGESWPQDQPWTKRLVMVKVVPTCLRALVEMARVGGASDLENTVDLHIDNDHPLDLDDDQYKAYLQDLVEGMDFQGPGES
Oligonucleotide	fitted relative affinity [z-score]
GAGGGTTTCCTTCTCCTGACGTGCTAG	8.13
GACGATTTCAGTATCGAGGCGTGCTAG	2.02
CCTATTATATATATCATAAGGTGCTAG	1.89
GACGATTTAGGGTTTCGAGACGTGCTA	1.24
TTAGAGCTGAGACTGGATTAGTGCTAG	-0.807
TTAGGTCTCAGTATCGGTTAGTGCTAG	2.26
AGGAATTTCCCACTTTCACTGTGCTAG	2.53
TTAGGACTGTGACTGGGTTAGTGCTAG	-0.784
TTAGGTTCCCTTTTGCTTTAGTGCTAG	6.95
GACGATATCGGGTTGCGAGACGTGCTA	0.304
GACGAACTGGGGTTTCAAGACGTGCTA	-0.388
GACGGTTTCCTTATCCTCACGTGCTAG	7.71
TCATCTCTCAAAAGTCACACTGTGCTA	1.04
TGCTCCTTATGGCTAAAGGGGTGCTAG	1.16
TGAGGTTTCGACTTTCGGTTAGTGCTA	3.59
ATGTATATATGTGTATATATGTGCTAG	0.186
TTAGGTTCCCTTTTCCTTTCGTGCTAG	7.9

Study 3
Target: Prothrombin, mature alpha-thrombin (F2, Homo sapiens, UniProt P00734)
Technique: aptamer microarray, sandwich
Molecule type: DNA with 2'F-ANA
Matrix: in vitro
Concentration: 200 nM
Setting: whole 15-mer aptamer, many near background
Added: Cy3 exosite-II aptamer, 400 nM
Reading: higher = stronger binding
Oligonucleotide: GGTTGGTGTGGTTGG
Modification	mean fluorescence intensity
2'F-ANA at 5 7 8 9 10 12 14 15	49.3 a.u.
2'F-ANA at 3 4 5 7 8 11 13 14	50.2 a.u.
2'F-ANA at 1 2 4 6 10 12 14	47 a.u.
2'F-ANA at 1 3 6 7 11 12 13 15	351 a.u.
2'F-ANA at 2 6 7 8 10 11 15	100 a.u.
2'F-ANA at 1 3 4 7 8 10 14	51.4 a.u.
2'F-ANA at 1 2 4 8 9 10 11 13 14	70 a.u.
2'F-ANA at 3 6 9 10 12 15	512 a.u.
2'F-ANA at 7 9 10 14 15	114 a.u.
2'F-ANA at 2 3 5 7 9 12	238 a.u.
2'F-ANA at 2 4 10 11 13	78 a.u.
2'F-ANA at 3 6 7 11 12 15	1190 a.u.
2'F-ANA at 1 5 6 9 12 14	46.3 a.u.
2'F-ANA at 1 8 11	193 a.u.
2'F-ANA at 1 3 4 7 11 15	193 a.u.
2'F-ANA at 4 5 6 7 10 13 15	45.1 a.u.
2'F-ANA at 2 4 6 9 10 11 14 15	75.2 a.u.
2'F-ANA at 1 9 10 11 12 13	64.3 a.u.
2'F-ANA at 3 5 11 12 13	192 a.u.
2'F-ANA at 1 2 6 7 8 9 10 11 13 15	51.4 a.u.
2'F-ANA at 1 2 4 6 7 8 9 12 13 15	221 a.u.
2'F-ANA at 1 2 4 6 7 8 9 10 13 15	49.2 a.u.
2'F-ANA at 2 3 5 7 8 9 10 12 14	49.7 a.u.
2'F-ANA at 2 5 6 9 11 12 13	81 a.u.
2'F-ANA at 1 4 6 7 8 10 12 13 14 15	50.3 a.u.

Study 4
Target: CCNA2, cyclin fold, Cln2 fusion (human)
Technique: yeast growth competition, sequencing
Matrix: yeast
Setting: strong parent motif
Baseline: not given
Reading: higher = stronger binding
Starting sequence: WEE1 docking peptide (human); HKTFRKLRLFDTP
Variant	normalised enrichment score
R8Y	3.49
L9N	1.31
D11N	0.44
F10V	0.531
T12Q	1.72
R8G	0.507
H1K	1.89
L9Q	2.82
T3P	2.12
T12M	2.01
R5P	0.296
F10G	0.538
R5E	1.71
R5K L9F	1.2
P13Q	0.712
L7D	0.268
R5I	2.16
R8Q	2.2
R8V	1.26
T12W	1.72

Study 5
Target: PABPC1L2, full length, GST fusion (mouse, UniProt A0ABA7IW68)
Technique: RNAcompete
Molecule type: RNA
Matrix: in vitro
Concentration: 20 nM
Setting: 7-mer, probes averaged, single round
Baseline: mean of 7-mers
Reading: higher = stronger binding
Residues (chain): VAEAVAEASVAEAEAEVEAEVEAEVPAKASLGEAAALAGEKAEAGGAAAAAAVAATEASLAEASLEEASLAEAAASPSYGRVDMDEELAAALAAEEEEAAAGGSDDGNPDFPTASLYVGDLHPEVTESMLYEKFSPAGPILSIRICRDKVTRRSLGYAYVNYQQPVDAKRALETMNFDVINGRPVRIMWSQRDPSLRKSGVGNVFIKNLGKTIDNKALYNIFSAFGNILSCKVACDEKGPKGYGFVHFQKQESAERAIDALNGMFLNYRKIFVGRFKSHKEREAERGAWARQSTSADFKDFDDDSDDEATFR
Oligonucleotide	7-mer Z-score
GCUGUUC	-0.36
GCUACAG	-0.0899
GUGUGAC	0.0207
CGGGUAU	-0.0808
GAUAGUC	-0.3
CUCCUAA	-0.0428
CAUAGGU	-0.079
GGCUAAG	0.0623
CUUUCGA	-0.286
CAGGUCU	-0.173
AAAAGUA	5.64
GAGUAAA	0.822
GCGCCGA	-0.175
UAGGUAG	-0.0428
UAAUGAA	0.137
AUCCGUU	-0.318
GUCGUAC	-0.358
AGUUGGU	-0.155
CUGGCGA	-0.0844
GACCUCC	-0.356
CUUAAAA	2.58
